Assay results from different studies.
± gives the spread as reported.
RECQL: RECQL 49-616 (Homo sapiens, UniProt P46063)
UniProt P46063, sequence (whole entry, unmodified, looked up): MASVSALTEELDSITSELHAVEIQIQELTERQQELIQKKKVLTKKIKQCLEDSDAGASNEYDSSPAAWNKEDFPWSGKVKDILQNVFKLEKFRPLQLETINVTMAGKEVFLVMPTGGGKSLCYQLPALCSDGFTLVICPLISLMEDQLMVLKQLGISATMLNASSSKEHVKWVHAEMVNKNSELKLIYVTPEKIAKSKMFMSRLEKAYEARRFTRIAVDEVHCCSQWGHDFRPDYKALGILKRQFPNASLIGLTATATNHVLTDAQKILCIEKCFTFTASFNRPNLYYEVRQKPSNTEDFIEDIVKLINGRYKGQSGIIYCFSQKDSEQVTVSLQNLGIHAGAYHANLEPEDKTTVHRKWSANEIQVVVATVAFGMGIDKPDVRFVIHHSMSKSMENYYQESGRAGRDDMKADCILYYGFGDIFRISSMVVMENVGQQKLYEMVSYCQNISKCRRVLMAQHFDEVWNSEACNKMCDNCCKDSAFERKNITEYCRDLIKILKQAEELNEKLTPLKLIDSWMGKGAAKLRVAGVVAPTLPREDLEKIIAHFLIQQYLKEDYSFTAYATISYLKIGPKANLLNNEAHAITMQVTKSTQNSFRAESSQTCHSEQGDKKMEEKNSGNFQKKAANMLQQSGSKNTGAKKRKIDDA
allR full length assumed: allR full length assumed (Escherichia coli, UniProt P0ACN4)
UniProt P0ACN4, sequence (whole entry, looked up): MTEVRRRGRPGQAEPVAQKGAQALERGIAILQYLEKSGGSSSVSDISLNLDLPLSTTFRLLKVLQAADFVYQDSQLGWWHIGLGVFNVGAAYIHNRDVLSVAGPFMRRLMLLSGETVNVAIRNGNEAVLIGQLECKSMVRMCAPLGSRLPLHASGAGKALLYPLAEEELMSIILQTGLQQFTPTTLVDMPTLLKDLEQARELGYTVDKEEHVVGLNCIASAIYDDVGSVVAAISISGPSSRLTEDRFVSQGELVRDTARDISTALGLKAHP
YAP1 full length assumed: YAP1 full length assumed (Saccharomyces cerevisiae, UniProt P19880)
UniProt P19880, sequence (whole entry, looked up): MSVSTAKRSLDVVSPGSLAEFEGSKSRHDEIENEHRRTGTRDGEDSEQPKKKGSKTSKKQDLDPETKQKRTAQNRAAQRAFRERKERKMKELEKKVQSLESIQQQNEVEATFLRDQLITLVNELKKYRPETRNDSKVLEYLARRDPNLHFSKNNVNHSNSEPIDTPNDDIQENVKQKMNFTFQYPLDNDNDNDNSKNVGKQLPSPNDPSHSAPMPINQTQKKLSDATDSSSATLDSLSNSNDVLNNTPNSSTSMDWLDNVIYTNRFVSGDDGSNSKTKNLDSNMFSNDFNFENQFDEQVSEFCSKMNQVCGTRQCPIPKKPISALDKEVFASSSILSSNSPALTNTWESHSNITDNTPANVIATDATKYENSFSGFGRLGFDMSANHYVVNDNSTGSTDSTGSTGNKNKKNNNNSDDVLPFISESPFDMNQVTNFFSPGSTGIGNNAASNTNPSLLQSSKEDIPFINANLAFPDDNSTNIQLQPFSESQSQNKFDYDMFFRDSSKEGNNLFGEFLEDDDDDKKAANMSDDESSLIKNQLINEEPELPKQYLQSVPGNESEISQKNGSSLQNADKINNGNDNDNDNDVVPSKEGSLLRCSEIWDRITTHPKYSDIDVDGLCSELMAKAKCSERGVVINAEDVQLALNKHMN
MGM101: MGM101 23-269 (Saccharomyces cerevisiae, UniProt P32787)
UniProt P32787, sequence (whole entry, looked up): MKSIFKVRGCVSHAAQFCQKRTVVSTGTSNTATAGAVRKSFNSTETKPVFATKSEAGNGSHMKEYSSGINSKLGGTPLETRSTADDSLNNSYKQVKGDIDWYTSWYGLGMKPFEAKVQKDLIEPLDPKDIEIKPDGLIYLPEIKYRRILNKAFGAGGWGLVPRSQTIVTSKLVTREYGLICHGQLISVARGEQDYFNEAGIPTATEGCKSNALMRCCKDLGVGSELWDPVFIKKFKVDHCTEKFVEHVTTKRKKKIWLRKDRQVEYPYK
SPT15/TOA1/TOA2/SUA7 1-240; 1-286; 1-122; 1-345: SPT15/TOA1/TOA2/SUA7 1-240; 1-286; 1-122; 1-345 (Saccharomyces cerevisiae)
Fibroin-modulator-binding protein-1: Fibroin-modulator-binding protein-1 99-193 (Bombyx mori, UniProt Q5FBS0)
T1: KU70/KU80 KU70 1-592; KU80 1-680 (Arabidopsis thaliana); chain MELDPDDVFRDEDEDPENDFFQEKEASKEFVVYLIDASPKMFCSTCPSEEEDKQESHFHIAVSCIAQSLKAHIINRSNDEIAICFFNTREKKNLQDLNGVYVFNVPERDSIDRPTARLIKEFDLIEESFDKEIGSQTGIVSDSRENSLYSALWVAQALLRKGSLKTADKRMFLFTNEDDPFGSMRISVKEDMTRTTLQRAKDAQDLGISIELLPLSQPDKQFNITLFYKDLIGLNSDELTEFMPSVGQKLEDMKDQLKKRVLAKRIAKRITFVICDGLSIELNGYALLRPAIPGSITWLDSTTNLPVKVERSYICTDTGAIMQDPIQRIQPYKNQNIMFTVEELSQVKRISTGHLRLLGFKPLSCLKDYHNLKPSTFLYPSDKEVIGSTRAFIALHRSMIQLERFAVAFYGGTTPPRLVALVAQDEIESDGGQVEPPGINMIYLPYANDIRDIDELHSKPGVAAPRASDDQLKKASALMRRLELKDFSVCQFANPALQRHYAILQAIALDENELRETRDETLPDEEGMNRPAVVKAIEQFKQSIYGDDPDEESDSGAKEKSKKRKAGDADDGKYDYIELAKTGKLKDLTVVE; chain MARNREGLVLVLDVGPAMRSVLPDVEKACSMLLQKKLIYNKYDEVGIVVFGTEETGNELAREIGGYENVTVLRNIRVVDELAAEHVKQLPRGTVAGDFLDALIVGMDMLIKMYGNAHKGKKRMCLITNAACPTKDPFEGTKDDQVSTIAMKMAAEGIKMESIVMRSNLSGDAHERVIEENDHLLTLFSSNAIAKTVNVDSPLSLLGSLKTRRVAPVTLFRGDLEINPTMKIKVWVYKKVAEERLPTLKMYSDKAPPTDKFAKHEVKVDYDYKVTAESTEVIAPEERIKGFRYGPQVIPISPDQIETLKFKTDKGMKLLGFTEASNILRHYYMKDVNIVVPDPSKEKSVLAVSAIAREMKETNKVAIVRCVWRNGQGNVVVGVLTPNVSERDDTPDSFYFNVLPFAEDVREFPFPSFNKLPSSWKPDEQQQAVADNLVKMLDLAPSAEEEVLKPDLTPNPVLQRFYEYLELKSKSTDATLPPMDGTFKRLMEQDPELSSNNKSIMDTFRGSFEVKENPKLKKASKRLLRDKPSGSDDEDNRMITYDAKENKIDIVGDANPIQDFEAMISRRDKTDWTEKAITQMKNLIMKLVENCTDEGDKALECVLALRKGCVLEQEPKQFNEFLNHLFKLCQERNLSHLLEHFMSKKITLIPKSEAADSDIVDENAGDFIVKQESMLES
UniProt Q8N884, sequence (whole entry, unmodified, looked up): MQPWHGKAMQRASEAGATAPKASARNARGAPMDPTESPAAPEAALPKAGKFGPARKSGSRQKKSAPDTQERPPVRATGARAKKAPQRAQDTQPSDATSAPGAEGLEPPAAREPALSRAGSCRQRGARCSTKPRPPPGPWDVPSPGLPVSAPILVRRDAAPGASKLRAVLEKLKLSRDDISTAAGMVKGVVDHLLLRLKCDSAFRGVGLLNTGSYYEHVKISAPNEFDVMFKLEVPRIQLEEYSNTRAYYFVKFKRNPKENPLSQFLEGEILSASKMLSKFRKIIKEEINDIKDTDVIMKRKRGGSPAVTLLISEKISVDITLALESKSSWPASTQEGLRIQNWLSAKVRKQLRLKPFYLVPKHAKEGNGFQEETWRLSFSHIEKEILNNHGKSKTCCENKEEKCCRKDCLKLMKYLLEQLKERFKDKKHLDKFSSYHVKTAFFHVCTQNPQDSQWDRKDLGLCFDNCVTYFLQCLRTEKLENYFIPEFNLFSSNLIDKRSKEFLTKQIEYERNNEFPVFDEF
UniProt Q00059, sequence (whole entry, looked up): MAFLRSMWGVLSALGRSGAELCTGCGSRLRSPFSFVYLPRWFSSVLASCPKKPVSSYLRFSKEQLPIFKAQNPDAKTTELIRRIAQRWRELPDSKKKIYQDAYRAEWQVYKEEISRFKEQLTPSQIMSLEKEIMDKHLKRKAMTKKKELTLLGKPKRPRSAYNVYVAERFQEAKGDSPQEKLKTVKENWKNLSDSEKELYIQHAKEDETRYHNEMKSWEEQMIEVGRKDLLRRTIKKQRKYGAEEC
UniProt Q9Y253, sequence (1-355, looked up): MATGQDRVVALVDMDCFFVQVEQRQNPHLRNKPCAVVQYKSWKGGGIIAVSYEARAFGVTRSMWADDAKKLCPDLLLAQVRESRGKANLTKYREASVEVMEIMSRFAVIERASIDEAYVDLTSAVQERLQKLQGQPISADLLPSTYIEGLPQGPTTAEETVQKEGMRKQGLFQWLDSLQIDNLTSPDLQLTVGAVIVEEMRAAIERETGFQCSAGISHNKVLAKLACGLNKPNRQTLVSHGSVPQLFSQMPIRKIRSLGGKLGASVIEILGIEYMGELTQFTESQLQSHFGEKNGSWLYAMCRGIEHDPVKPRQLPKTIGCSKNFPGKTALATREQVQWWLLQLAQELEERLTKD
UniProt P13500, sequence (whole entry, looked up): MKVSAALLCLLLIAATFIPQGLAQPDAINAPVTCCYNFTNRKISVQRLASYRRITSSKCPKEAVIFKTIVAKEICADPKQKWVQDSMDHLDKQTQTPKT
UniProt P01185, sequence (whole entry, looked up): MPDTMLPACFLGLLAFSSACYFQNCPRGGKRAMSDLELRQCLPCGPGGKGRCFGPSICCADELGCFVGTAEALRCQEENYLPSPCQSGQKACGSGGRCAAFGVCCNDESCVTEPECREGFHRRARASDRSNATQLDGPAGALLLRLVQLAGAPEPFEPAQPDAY
UniProt Q01844, sequence (whole entry, looked up): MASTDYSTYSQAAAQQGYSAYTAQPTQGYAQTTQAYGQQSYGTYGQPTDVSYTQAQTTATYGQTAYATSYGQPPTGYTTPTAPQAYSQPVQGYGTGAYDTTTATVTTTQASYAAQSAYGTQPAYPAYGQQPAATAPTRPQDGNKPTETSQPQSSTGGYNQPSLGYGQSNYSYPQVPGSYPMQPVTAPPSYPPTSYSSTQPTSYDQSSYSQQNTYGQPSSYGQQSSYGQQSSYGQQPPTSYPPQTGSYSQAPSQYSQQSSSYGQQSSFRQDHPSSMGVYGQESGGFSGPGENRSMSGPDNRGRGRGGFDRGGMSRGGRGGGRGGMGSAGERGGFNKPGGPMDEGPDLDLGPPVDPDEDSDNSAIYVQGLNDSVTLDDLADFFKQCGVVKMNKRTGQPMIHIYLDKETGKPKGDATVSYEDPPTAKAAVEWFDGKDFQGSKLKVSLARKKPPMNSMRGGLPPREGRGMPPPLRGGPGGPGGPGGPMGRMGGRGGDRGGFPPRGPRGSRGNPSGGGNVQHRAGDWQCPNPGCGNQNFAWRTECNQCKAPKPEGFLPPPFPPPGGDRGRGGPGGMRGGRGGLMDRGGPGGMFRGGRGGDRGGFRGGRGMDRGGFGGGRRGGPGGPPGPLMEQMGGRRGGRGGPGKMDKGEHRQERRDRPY
UniProt P42568, sequence (whole entry, unmodified, looked up): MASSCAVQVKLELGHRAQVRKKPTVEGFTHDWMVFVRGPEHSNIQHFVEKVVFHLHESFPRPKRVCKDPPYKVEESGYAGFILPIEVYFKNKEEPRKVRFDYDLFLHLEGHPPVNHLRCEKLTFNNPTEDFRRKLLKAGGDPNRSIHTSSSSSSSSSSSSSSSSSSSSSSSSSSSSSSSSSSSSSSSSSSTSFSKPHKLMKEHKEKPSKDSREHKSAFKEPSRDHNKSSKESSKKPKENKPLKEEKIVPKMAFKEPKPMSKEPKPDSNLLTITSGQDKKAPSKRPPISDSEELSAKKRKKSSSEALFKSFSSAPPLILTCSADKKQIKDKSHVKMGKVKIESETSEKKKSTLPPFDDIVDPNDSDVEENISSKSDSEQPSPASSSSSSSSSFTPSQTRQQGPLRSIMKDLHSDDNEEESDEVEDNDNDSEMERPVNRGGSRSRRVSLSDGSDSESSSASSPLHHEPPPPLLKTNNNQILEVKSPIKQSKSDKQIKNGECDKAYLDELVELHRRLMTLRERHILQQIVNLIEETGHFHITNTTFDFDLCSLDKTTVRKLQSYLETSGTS
UniProt P18848, sequence (whole entry, looked up): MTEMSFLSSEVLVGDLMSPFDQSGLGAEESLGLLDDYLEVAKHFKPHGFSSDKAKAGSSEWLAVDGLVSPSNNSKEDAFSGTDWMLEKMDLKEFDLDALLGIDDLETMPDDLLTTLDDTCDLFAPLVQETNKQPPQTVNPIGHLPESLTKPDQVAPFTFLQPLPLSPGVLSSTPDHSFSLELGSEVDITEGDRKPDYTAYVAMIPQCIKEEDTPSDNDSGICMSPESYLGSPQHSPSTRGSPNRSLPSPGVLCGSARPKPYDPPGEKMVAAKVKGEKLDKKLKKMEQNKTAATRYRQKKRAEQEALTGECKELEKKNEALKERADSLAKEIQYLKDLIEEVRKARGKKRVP

RNA 1 UAAGACACGAUGCGAUAAAAUCUG / RNA 2 CAGAUUUUAUCGCAUCGUGUCUUA (dsRNA) — Kd (CGAS 161-522 (Homo sapiens, UniProt Q8N884); fluorescence anisotropy; double-stranded RNA): 356 ± 61 nM
ATTTATATTATTTATTCATATTTATATTTA (ssDNA) — Kd (APOBEC3F full length assumed D311A (Homo sapiens, UniProt Q8IUX4); EMSA; single-stranded DNA): 1800 ± 425 nM
DNA 1 GGATCTCGACGCTCTCCCTT / DNA 2 GTCGAGATCC (dsDNA; 3' 10-nt overhang, blunt end) — Kd (RECQL; fluorescence anisotropy; double-stranded DNA; Mg2+ 5 mM, without ADPNP): 131 ± 14 nM
AAAUGAGGCGCUGCAUGUGGCAGUCUGCCUUUCUUU (structured RNA) — Kd (MLLT3 1-140 K63E/K67E (Homo sapiens, UniProt P42568); fluorescence polarization; folded RNA): 674 ± 60 nM
CATTCGCAACCTATAAGTAAATCCAATGGAACTCATCATAAATGAGACTTTTACCTTATGA (dsDNA) — Kd (allR full length assumed; BLI; double-stranded DNA, one strand shown): 1370 nM
CGCGGGAATTAGGTAATTAGTCAATTAGTGAATTAGTTAATTATACAATTATAGACTCCGGCGGTATGAC (dsDNA) — Kd (YAP1 full length assumed; MITOMI; double-stranded DNA, one strand shown; not purified): 1800 ± 100 nM
GGATCTCGACGCTCTCCCTT (dsDNA) — Kd (RECQL; fluorescence anisotropy; double-stranded DNA, one strand shown; Mg2+ 5 mM, with: ADPNP 2 mM): 571 ± 57 nM
TTGCATCCTTCACAACGACCACCTAGATAG (dsDNA; blunt) — Kd (T1, KU70/KU80 KU70 1-592; KU80 1-680 (Arabidopsis thaliana); PIFE stopped-flow; double-stranded DNA, one strand shown): 105 nM
TTGATAAGAGGTCATTTTTGCGGATGGCTTAGAGCTTAATTGCTGAATCTGGTGCTGTAGCTCAACATGTTTTAAATATGCAA (ssDNA) — Kd (MGM101; fluorescence polarization; single-stranded DNA): 360 ± 85 nM
CTCAGGAATTCCTATGAAGTAATGTGGAGCTCAGTTCAAGTCAATCGGTCC (dsDNA; 5'-amino-C6 primer) — Kd (SPT15/TOA1/TOA2/SUA7 1-240; 1-286; 1-122; 1-345; array; double-stranded DNA, one strand shown; TBP:TFIIA:TFIIB ternary complex): 3.12 ± 0.43 nM
AGTTGGCAAGATGCCAATC (dsDNA) — Kd (NFIB full length assumed (Homo sapiens, UniProt O00712); BLI; double-stranded DNA, one strand shown; with: Zn2+ 1 mM): 1.56 ± 0.04 nM
DNA 1 TGATTTCTTCGAAGAATATACTAAAAAATGAGCAGTCAATTCAATCGGTCC / DNA 2 GGACCGATTGACTTGACTGCTCATTTTTTAGTATATTCTTCGAAGAAATCA (dsDNA; 5'-amino-C6 primer) — Kd (SPT15/TOA1/TOA2/SUA7 1-240; 1-286; 1-122; 1-345; array; double-stranded DNA; TBP:TFIIA:TFIIB ternary complex): 1.68 ± 0.18 nM
TAAGACACGATGCGATAAAATCTGTTTGTAAAATTTATTAAGGGTACAAATTGCCCTAGC (dsDNA) — Kd (CGAS 1-522 (Homo sapiens, UniProt Q8N884); fluorescence anisotropy; double-stranded DNA, one strand shown): 22.8 ± 3.1 nM
TAACAGTCACCCCCCNACTAAC / GTTAGTTGGGGGGTGACTGTTA (dsDNA; blunt, THF abasic site) — Kd (TFAM 43-246 (Homo sapiens, UniProt Q00059); fluorescence polarization; apparent): 0.71 ± 0.32 nM
TTGACAAAATTTGAAAGTTGGAAAAATTTTCCAATAAATAGAGGTAGGAATAAAATGGCAA (dsDNA) — Kd (allR full length assumed; BLI; double-stranded DNA, one strand shown): 9.61 nM
DNA 1 GATCGATCGATCGAATTCTCGATCGATCGATCGATTCAATTCAATCGGTCC / DNA 2 GGACCGATTGACTTGAATCGATCGATCGATCGAGAATTCGATCGATCGATC (dsDNA; 5'-amino-C6 primer) — Kd (SPT15/TOA1/TOA2/SUA7 1-240; 1-286; 1-122; 1-345; array; double-stranded DNA; TBP:TFIIA:TFIIB ternary complex): 2.46 ± 0.49 nM
DNA 1 TGGGTGGGTAGGGTGGGTAGGGGAGGAT / DNA 2 ATCCTCCCCTA (DNA; intramolecular parallel G4, 5' overhang, 11-bp duplex) — Kd (REV1 330-833 M656V (Homo sapiens, UniProt Q9UBZ9); FP; folded DNA; KCl 100 mM): 4 ± 0.7 nM
CTGCTGGAAACGCCGCGGTCAGCTCGGCTGCTGC (dsDNA) — Kd (EWSR1 454-656 (Homo sapiens, UniProt Q01844); EMSA; double-stranded DNA, one strand shown): 279 ± 50 nM
AGCCAGCCAGCC (dsDNA) — Kd (Fibroin-modulator-binding protein-1; ITC; double-stranded DNA, one strand shown): 4030 ± 797 nM
TATTATTGGCACTTCTGTATAACTGGCTTTCATTCTCAAGTCAATCGGTCC (dsDNA; 5'-amino-C6 primer) — Kd (SPT15/TOA1/TOA2/SUA7 1-240; 1-286; 1-122; 1-345; array; double-stranded DNA, one strand shown; TBP:TFIIA:TFIIB ternary complex): 7.86 ± 3.76 nM
CACTCTGACGTCACACTC (dsDNA) — Kd (ATF4 1-351 (Homo sapiens, UniProt P18848); fluorescence polarization; double-stranded DNA, one strand shown; one-site model, dimer, with: Mg2+ 10 mM): 190 ± 20 nM
CTCTCGGGACGACGTCCAAGTAGTACGTTTAATTAGGATTTCCGAATTATTGGCATGCGTCGTCCC (DNA; stem-loop) — Kd (arginine vasopressin 20-28 (Homo sapiens, UniProt P01185); bulk solution assay; folded DNA): 543 nM
AGTCAGTCAGTC (dsDNA) — Kd (Fibroin-modulator-binding protein-1; ITC; double-stranded DNA, one strand shown): 6730 nM
GGGTGAGGGAGTGGGTCAGGG (G-quadruplex DNA; G-quadruplex) — Kd (CCL2 24-99 (Homo sapiens, UniProt P13500); BLI; folded DNA): 11.7 nM
GTAAGTAAGTAA (dsDNA) — Kd (Fibroin-modulator-binding protein-1; ITC; double-stranded DNA, one strand shown): 5110 ± 983 nM
AGCAACACCG (ssRNA) — Kd (TARDBP 102-269 (Homo sapiens, UniProt Q13148); BLI; RNA): 1320 ± 350 nM
TCCTGAAGGGGCGCATATAAAAGGTCCTATCGTCGTCAAGTCAATCGGTCC (dsDNA; 5'-amino-C6 primer) — Kd (SPT15/TOA1/TOA2/SUA7 1-240; 1-286; 1-122; 1-345; array; double-stranded DNA, one strand shown; TBP:TFIIA:TFIIB ternary complex): 1.7 ± 0.2 nM
TGACGTAGATTCGAATCGTTAGTGAGAGCTTAATTGCTGAATCTGGTG (dsDNA) — Kd (MGM101; fluorescence polarization; double-stranded DNA, one strand shown): 2200 ± 1500 nM
CCGGCCGGCCGG (dsDNA) — Kd (Fibroin-modulator-binding protein-1; ITC; double-stranded DNA, one strand shown): 5380 ± 873 nM
RNA 1 UAAGACACGAUGCGAUAAAAUCUGUUUGUAAAAUUUAUUAAGGGUACAAAUUGCCCUAGC / RNA 2 GCUAGGGCAAUUUGUACCCUUAAUAAAUUUUACAAACAGAUUUUAUCGCAUCGUGUCUUA (dsRNA) — Kd (CGAS 161-522 K394E (Homo sapiens, UniProt Q8N884); fluorescence anisotropy; double-stranded RNA): 1490 ± 530 nM
GTTGGTTGGTTG (dsDNA) — Kd (Fibroin-modulator-binding protein-1; ITC; double-stranded DNA, one strand shown): 7200 nM
CACCATCCACTAC / ATGTAGTTGTAGTGGATGGTGGTAC (dsDNA; primer-template) — Kd (POLH core, residues 1-355 R356X (Homo sapiens, UniProt Q9Y253); fluorescence polarization; with: MgCl2 5 mM): 3.2 ± 0.5 nM
CGCTTCAATGTTTGAATGTTTTAATTAATTACACAATTACAGAATTACATAATTACTCCGGCGGTATGAC (dsDNA) — Kd (YAP1 full length assumed; MITOMI; double-stranded DNA, one strand shown; not purified): 710 ± 60 nM
DNA 1 CACTGGCCGTCTTACGGTCGCTCTGCTCGACG / DNA 2 CGACCGTAAGACGGCCAGTG (dsDNA; 20 bp, 3' 12 nt overhang) — Kd (RECQL 63-592 R203A (Homo sapiens, UniProt P46063); fluorescence anisotropy; double-stranded DNA; with: Mg2+ 3 mM): 58.3 ± 19.3 nM
TGGCACTCGGGAGGCAGCGGCGACTTTGGGGAAAGTCAAGTCAATCGGTCC (dsDNA; 5'-amino-C6 primer) — Kd (SPT15/TOA1/TOA2/SUA7 1-240; 1-286; 1-122; 1-345; array; double-stranded DNA, one strand shown; TBP:TFIIA:TFIIB ternary complex): 4.69 ± 4.92 nM
UUCCUAUAUCUUCU (XNA; single strand, 2'-OMe, phosphorothioate backbone) — Kd (TARDBP 1-414 (Homo sapiens, UniProt Q13148); fluorescence polarization; modified nucleic acid; apparent): < 20 nM

Repeated from above:
TTGATAAGAGGTCATTTTTGCGGATGGCTTAGAGCTTAATTGCTGAATCTGGTGCTGTAGCTCAACATGTTTTAAATATGCAA (ssDNA) — Kd (MGM101; fluorescence polarization; single-stranded DNA): 360 ± 85 nM
CTCAGGAATTCCTATGAAGTAATGTGGAGCTCAGTTCAAGTCAATCGGTCC (dsDNA; 5'-amino-C6 primer) — Kd (SPT15/TOA1/TOA2/SUA7 1-240; 1-286; 1-122; 1-345; array; double-stranded DNA, one strand shown; TBP:TFIIA:TFIIB ternary complex): 3.12 ± 0.43 nM
AGTTGGCAAGATGCCAATC (dsDNA) — Kd (NFIB full length assumed (Homo sapiens, UniProt O00712); BLI; double-stranded DNA, one strand shown; with: Zn2+ 1 mM): 1.56 ± 0.04 nM
DNA 1 TGATTTCTTCGAAGAATATACTAAAAAATGAGCAGTCAATTCAATCGGTCC / DNA 2 GGACCGATTGACTTGACTGCTCATTTTTTAGTATATTCTTCGAAGAAATCA (dsDNA; 5'-amino-C6 primer) — Kd (SPT15/TOA1/TOA2/SUA7 1-240; 1-286; 1-122; 1-345; array; double-stranded DNA; TBP:TFIIA:TFIIB ternary complex): 1.68 ± 0.18 nM
